Assay results gathered from unrelated publications.
Each numbered part is a random draw from the data of one study; scales do not carry over between parts. Changes are numbered by the printed parent chain.

Series 1
Target: CCND2, cyclin fold, Cln2 fusion (human)
Method: yeast growth competition, sequencing
Medium: yeast
Setting: weak parent motif
Baseline: not given
Reading: higher = stronger binding
Parent: ORC1 docking peptide (human); PRARKRLELGNLG
For `PRARKRFELGNLG [L7F]`, “normalised enrichment score” read -0.183.
`PRAEKRLELGNLG [R4E]` — result for “normalised enrichment score”: 0.18.
`PRARKRLELGNPG [L12P]` — result for “normalised enrichment score”: 0.407.
`PRARKRLELGNLR [G13R]`: “normalised enrichment score” -0.0374.
`PRARKRLELGNLE [G13E]`: “normalised enrichment score” -0.415.
`PRARKRHELGNLG [L7H]`: “normalised enrichment score” -0.201.
For `PRARKSLELGNLG [R6S]`, “normalised enrichment score” read -0.0684.
`PRAVKRLELGNLG [R4V]` — result for “normalised enrichment score”: 0.129.
Under “normalised enrichment score”, `PEARKRLELGNLG [R2E]` is recorded as 0.15.
Under “normalised enrichment score”, `PRATKRLELGNLG [R4T]` is recorded as 0.0241.
`PRALKRLELGNLG [R4L]`: “normalised enrichment score” 0.0349.
For `PRARKRLELINLG [G10I]`, “normalised enrichment score” read 0.0234.

Series 2
Target: RNA binding protein fox-1 homolog 2, RRM domain, GST-SBP tag (RBFOX2, Homo sapiens, UniProt O43251-10, residues 100-194)
Method: RNA Bind-n-Seq
Molecule type: RNA
Medium: in vitro
Tested at: 365 nM
Setting: natural RNA segment, single round, ends assumed
Baseline: no-protein control
Reading: higher = stronger binding
Target sequence (chain): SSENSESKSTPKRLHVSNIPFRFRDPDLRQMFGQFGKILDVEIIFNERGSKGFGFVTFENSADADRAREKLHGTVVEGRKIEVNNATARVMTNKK
`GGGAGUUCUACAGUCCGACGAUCUCAGUUGUGAAGGAGCAGGAGGUUUAGACGAUGAAGAAAUUCUUGACUGUUUUUCAGUUGCUAUAUCAUAUUUUAAAAGUUUCUUUUCUAGCUUGACACUGUACUAGCUUUGGAAUUCUCGGGUGCCAA`: “RBNS enrichment (R)” 0.89.
For `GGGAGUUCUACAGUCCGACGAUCAGAUGCUACUUGUAUCAUUUUGCCCAUAAAUGGAUAAAUAAUUUUAUGCAUAUCAUACCAAAUGUUCCUAAAAAGUAAUCUUUCAAAAAAGUAUAAAAGAGAAACUGGAAUGGAAUUCUCGGGUGCCAA`, “RBNS enrichment (R)” read 0.704.
`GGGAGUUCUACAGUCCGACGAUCAAAUGUCCCAAACAUUUAAGCUAGAGUUAGUUCUUGAUGUUGUAUACCUAAGCCCAUAAUCGAGCUAGUAUCUUGGAUGGUAUACAACCAAGAACCAGCUAAACAAUUAGUGGAAUUCUCGGGUGCCAA`: “RBNS enrichment (R)” 0.389.
Under “RBNS enrichment (R)”, `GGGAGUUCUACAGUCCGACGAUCAGCCGGAUUUGUGUAUCAAUUCCUCCGCUGACAGUCAGUUUCUAGAUGGAGACAGCCUGCUUAAAGCAAAUCCGAAUUUAAAUAGGACAUUUACAUCGGAAAAGUCUCUCUGGAAUUCUCGGGUGCCAA` is recorded as 0.224.
`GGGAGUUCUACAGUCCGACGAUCCAUGCUUUAAAUGAUGUCACUUUCCACAACUUCAUUCUUGUGCUGUCAUUGGACUGAAUGUUAUGCAUCUUUAAAGGGAAUCACUUCGUGUAAAACUCUCUUGUCUCUUCUGGAAUUCUCGGGUGCCAA`: “RBNS enrichment (R)” 0.49.
Under “RBNS enrichment (R)”, `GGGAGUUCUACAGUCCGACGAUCUAGAGCUUCUCAGAAACCCUAAUAGGCAAGUAUUAUCUUGAUUUUGCAGAUGUGAAAGCUAAGACCAUGAACCAUGUGAGAUUCCAAACCAAAUAAGCUUGCUGCCAUGGUGGAAUUCUCGGGUGCCAA` is recorded as 0.464.
`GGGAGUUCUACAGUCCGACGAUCUGAAAACUGAGACUCACAUCCAAGGUUUCAAACCACAAAACCUUGGCAUGACUCUGCCAUGGUGUCACAGGCAUCUUGAUCAUGUCUUGACCAUAGAAUUGCUCUCUAGGUGGAAUUCUCGGGUGCCAA` — result for “RBNS enrichment (R)”: 0.284.
`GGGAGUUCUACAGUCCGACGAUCCCCAGAGAGGGCUCAGAAACGGCCCAGGAAGGCCCAGGGCCUUCCUGGCGUGAUUGACGAUCUGAGUUUUAUCUCUCACACCUACAAGGUGGAAGAGGAGAACUGGCUCCUGGAAUUCUCGGGUGCCAA`: “RBNS enrichment (R)” 0.2.
`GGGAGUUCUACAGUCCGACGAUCCUGUCAGUCGUGUAUUAUACUAAGGCAAGUGUUGUAAAGAUGAAUUACAAAUAGAUCUAGGAACUGGGUCAUAGUUGGCUGGUGGGACAUUAUAGUUGUAAAGCUCAAGUUGGAAUUCUCGGGUGCCAA`: “RBNS enrichment (R)” 0.325.
`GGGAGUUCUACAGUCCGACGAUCCAGAAUAGAUACCAAGAAAAAGCUAUCUAUUAGGUUUCUAAUUCCAGGACCUAGAUAGACAAGUACACUUUUAAUUGAGGCCAAAUGAUGAGCCACAAUGGUAACCCAUAUGGAAUUCUCGGGUGCCAA` — result for “RBNS enrichment (R)”: 0.451.
For `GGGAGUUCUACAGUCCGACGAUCCAUUUUACAUAAGAAUUUUAAGUAUUUGCAAUAAAUAUAUGUAUAUAGAUUGUAUGUAUUCCUAUAUUCUUAUUUUUCAUUUUAUUAUUAAGUAAAAGAUCAUUAAAAGUUGGAAUUCUCGGGUGCCAA`, “RBNS enrichment (R)” read 0.777.
`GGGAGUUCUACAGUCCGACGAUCAAAACAGUUUUUAAUUUUAGAAAUCUUAUACUUGAAAGAAACCUCAAUUAUCAGUGGCUUUAUGAAGUAAAGUUAAAAACAAACAUAGGAAAUGUGAAAAUAUUUGUGUUUGGAAUUCUCGGGUGCCAA` — result for “RBNS enrichment (R)”: 2.19.

Series 3
Target: Sal-like protein 4, full length isoform A (SALL4, Homo sapiens, UniProt Q9UJQ4, residues 1-1053)
Chain of UniProt Q9UJQ4 (whole entry, looked up): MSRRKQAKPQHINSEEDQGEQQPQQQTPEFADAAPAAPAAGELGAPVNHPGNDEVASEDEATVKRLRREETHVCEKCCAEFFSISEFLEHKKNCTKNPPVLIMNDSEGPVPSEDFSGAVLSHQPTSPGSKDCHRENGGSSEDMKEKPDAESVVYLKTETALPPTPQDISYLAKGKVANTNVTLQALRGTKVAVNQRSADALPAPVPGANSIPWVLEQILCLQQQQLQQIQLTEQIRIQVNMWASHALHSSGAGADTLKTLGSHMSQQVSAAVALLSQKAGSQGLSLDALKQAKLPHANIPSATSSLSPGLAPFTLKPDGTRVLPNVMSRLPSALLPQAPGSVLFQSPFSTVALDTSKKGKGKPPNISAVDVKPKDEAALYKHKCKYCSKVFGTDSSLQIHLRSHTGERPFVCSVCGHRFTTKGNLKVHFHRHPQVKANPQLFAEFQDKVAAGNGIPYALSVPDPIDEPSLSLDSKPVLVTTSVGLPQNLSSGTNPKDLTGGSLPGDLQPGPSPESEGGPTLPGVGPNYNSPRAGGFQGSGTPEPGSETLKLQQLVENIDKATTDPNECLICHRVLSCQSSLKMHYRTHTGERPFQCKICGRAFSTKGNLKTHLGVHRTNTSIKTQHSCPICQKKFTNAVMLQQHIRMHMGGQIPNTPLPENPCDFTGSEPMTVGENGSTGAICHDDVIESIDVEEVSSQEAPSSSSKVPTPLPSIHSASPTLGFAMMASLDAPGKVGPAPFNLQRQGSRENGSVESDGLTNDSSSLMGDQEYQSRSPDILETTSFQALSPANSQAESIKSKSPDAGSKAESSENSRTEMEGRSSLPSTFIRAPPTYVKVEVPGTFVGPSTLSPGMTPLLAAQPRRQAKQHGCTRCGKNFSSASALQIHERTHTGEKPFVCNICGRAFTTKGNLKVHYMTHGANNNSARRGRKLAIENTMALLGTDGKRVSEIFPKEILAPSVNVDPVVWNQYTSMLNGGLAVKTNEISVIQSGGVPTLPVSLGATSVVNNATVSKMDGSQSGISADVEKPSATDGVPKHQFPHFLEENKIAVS
Method: universal PBM
Molecule type: double-stranded DNA, one strand shown
Medium: in vitro
Tested at: 600 nM
Setting: 8-mer, flanks averaged, mean of replicates
Reading: higher = stronger binding
For `ATGCCCAA`, the E-score was -0.0521.
The E-score of `ATGCGCTA` is reported as 0.0395.
The E-score of `ATATGAGC` is reported as 0.159.
With `CTCGTACC` the E-score was -0.025.
For `ATACTGAC`, the E-score was 0.182.
`CATTGTGA` gave an E-score of -0.105.
For `AAATCCGG`, the E-score was -0.144.
With `AATTGTAT` the E-score was 0.297.
The E-score of `CCTGCGAC` is reported as -0.23.
The E-score of `CTTGGCAC` is reported as -0.071.
`AGTGTTTG` has an E-score of 0.16.
With `CCGGCGAC` the E-score was -0.351.
For `GTAAGCAA`, the E-score was 0.124.
The E-score of `CACGTTTC` is reported as -0.165.
`CAAACGTA` gave an E-score of 0.0433.
With `AGGGTGGA` the E-score was -0.171.
The E-score of `TGGGGAAA` is reported as -0.0147.
`AACCATGC` gave an E-score of 0.0102.
For `AGTATTCA`, the E-score was 0.217.
`GTGAGTGA` gave an E-score of -0.127.
For `GCGCAAAC`, the E-score was -0.192.
With `CCCTTGGA` the E-score was -0.0215.

Series 4
Target: Sox-I, HMG box (Salpingoeca helianthica)
Method: Spec-seq
Molecule type: double-stranded DNA, one strand shown
Medium: in vitro
Tested at: not given
Setting: whole probe, mean of replicates
Baseline: not given
Reading: lower = stronger binding
Constant ends, left off below: GAGTCGTCTCGTCAGCAC … CCGTAGAGCACTCAGGTC
Residues (chain): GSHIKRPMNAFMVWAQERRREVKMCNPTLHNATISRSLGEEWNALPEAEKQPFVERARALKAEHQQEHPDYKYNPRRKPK
For `CATGCCA`, “relative binding energy” read 1.09 ln ratio.
Under “relative binding energy”, `CATGGCC` is recorded as 0.947 ln ratio.
Under “relative binding energy”, `ATCGGTT` is recorded as 0.408 ln ratio.
`AGCCGTT` — result for “relative binding energy”: 0.349 ln ratio.
`GACCGTT`: “relative binding energy” 0.707 ln ratio.
`CATTGCA` — result for “relative binding energy”: 0.84 ln ratio.
`TTGGGTT`: “relative binding energy” 0.912 ln ratio.
Under “relative binding energy”, `CATCCTT` is recorded as 0.426 ln ratio.
`CATCTGG`: “relative binding energy” 1.34 ln ratio.
For `CATGCGA`, “relative binding energy” read 1.26 ln ratio.

Series 5
Target: RING finger protein unkempt homolog, zinc fingers 1-6, GST-SBP tag (UNK, Homo sapiens, UniProt Q9C0B0, residues 30-357)
Chain of UniProt Q9C0B0 (30-357, looked up): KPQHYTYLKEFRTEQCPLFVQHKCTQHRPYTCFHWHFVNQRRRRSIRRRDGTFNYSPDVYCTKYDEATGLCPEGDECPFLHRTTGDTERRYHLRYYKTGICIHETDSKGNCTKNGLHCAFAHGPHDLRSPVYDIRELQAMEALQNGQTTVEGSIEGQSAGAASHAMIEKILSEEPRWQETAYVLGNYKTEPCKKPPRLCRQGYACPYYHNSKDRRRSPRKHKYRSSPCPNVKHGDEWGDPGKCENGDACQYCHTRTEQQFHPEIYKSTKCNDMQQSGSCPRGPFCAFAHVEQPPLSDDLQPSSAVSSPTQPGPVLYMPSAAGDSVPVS
Method: RNA Bind-n-Seq
Molecule type: RNA
Medium: in vitro
Tested at: not given
Setting: RNA with constant flanks, human and mouse sites, ends assumed
Baseline: input RNA pool
Reading: higher = stronger binding
For `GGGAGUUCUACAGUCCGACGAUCCUGCACCCUUCCCAGCCUGUUCUGUACUGGGGACAGCAGUCUUCUCCCUGUCCUCCCAUGUCCUAUAUCCACCCCUCCCCUUGGAAGGUCCUCCCCACAGUGACACUGGACAGCCCUGGGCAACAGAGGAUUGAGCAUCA`, the bound/input enrichment was 0.203 ratio.
`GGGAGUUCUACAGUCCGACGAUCGGUAAGUGGGGGCAAGUGGGGGCAAGGGGACAUAUCAUUGUGACAACUUUUUUGAUAUUUACUAGAAAUGAUGCAAUAUAUCCUUUCUGAGAUAUUUACAGUAUUAUUAAAGGGUUGGGCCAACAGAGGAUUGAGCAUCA` gave a bound/input enrichment of 4.66 ratio.
The bound/input enrichment of `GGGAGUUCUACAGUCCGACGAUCGUAGCUAAGUUUCUUGAUGCUUCUGGAGCAAAACUUGAUUACCGUCGAUAUGCAGAAACACUCUUUGACAUUCUGGUGGCUGGUGGAAUGCUGGCCCCAGGUGGUACACUGGCAGAUGACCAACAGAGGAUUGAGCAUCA` is reported as 0.266 ratio.
With `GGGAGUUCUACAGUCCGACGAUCUGGUGGAUUGGAAUUAAGUGGGUUGCAGGAGGACAAGCAUUUUUUGGAGCCCAGUUGAAUUCCUUUAUCCAUGUGAUUAUGUACUCAUACUAUGGGUUAACUGCAUUUGGCCCAUGGAUUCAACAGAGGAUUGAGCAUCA` the bound/input enrichment was 0.127 ratio.
`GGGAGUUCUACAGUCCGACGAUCAAGAUCAAAGAGAAGUACAUUGACCAGGAGGAGCUGAACAAGACAAAGCCUAUCUGGACCAGAAACCCGGAUGACAUCACGCAGGAGGAGUAUGGCGAAUUCUAUAAGAGCCUCACCAAUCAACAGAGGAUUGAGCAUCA` has a bound/input enrichment of 0.135 ratio.
The bound/input enrichment of `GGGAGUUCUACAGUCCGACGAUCAACACACCCACUUCUCAGAUGAAAUUACAGAAGACACCCAGAUCACCUUUAGAGCCAGAAAAUGUGCCCAGUUUACUAUUGAAAGAAAAUGUGAAACAGACAGAAUCACAACAGACUGGGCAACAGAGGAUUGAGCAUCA` is reported as 0.581 ratio.
For `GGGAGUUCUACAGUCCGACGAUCUUAAAAUUGAAUAAAAGGAAACUUGCAGGUCAUCAGGAGACUUCUACCAAAAGUAGUGAGACUGGAUCCACAAAAGAUAAUUUUAUACAAAAUAAUCCUUGUAAUAGUAAUCCUGAGAAGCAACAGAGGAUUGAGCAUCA`, the bound/input enrichment was 0.36 ratio.
`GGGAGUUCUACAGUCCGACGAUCCUGCAUCUUCACUACACAGUGAGCAUCACCAGUUUUAUCCCACGUUUUAACUUUCUAAGCAUAGAUCUGCCAGUGGUUGUGGAGACAUUUGUCAAGUACCUGAUUUCCCUCUCAGGAGCUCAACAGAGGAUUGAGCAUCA` gave a bound/input enrichment of 0.479 ratio.
`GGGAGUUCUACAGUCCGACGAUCGCUCCCAUUGGUGUACACCCAUCCCUGGCACCUUUGGCCAAAAUCCUCGAGGGCUCUGGAGUGGAUGCAAAGGUUGAGCCAGAAGUGAAAGACUCCCUGGGGGUUUACUGUAUUGAUGCCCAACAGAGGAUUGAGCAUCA` gave a bound/input enrichment of 0.267 ratio.
The bound/input enrichment of `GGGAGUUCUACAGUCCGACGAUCCAGAUCCCUUCCAGCUGAGCCCCUCCCCUCCCCCCACCAUGUGUUUCUUGGUUUUCCUUUUGUUUGAUUGUCCCUCUGCCCCUCCUUCCUUGGAUUGUAAUGUAAAAUUCUUUUACCAUGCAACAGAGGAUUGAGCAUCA` is reported as 1.71 ratio.
The bound/input enrichment of `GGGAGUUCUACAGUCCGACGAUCUUCAAAAUCGGAGCAUGUCGUCAUGGAGACAGAUGUUCUCGGUUGCACAAUAAACCAACCUUUAGCCAGACCAUUGCCCUCUUGAACAUUUACCGUAACCCUCAAAACUCUUCCCAGUCUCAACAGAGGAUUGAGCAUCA` is reported as 0.179 ratio.

Further values, each from its own experiment
`PhoQ, residues 284 288 289 292 302 303 TLSLKA` has a fold induction of 2.69 (PhoP, residues 12 14 15 18 19 LQHIR (Escherichia coli, UniProt P23836); Sort-seq, item: YFP reporter; E. coli; PhoQ-PhoP variant library, added: 10 µM Mg2+; baseline: high Mg2+ state, higher = stronger signaling).

A few entries again (series 4):
For `CATGCCA`, “relative binding energy” read 1.09 ln ratio.
Under “relative binding energy”, `CATGGCC` is recorded as 0.947 ln ratio.
Under “relative binding energy”, `ATCGGTT` is recorded as 0.408 ln ratio.
`AGCCGTT` — result for “relative binding energy”: 0.349 ln ratio.
`GACCGTT`: “relative binding energy” 0.707 ln ratio.
`CATTGCA` — result for “relative binding energy”: 0.84 ln ratio.
`TTGGGTT`: “relative binding energy” 0.912 ln ratio.
